Measured values collected from several papers.
Numbered parts are unrelated; each lists some results of a single study.

Study 1 — technique: RNA Bind-n-Seq; form: RNA; matrix: in vitro; tested at: not given; relative to: input RNA pool; reading: higher = stronger binding
Target: RING finger protein unkempt homolog, zinc fingers 1-6, GST-SBP tag (UNK, Homo sapiens, UniProt Q9C0B0, residues 30-357)
Sequence of UniProt Q9C0B0 (30-357, looked up): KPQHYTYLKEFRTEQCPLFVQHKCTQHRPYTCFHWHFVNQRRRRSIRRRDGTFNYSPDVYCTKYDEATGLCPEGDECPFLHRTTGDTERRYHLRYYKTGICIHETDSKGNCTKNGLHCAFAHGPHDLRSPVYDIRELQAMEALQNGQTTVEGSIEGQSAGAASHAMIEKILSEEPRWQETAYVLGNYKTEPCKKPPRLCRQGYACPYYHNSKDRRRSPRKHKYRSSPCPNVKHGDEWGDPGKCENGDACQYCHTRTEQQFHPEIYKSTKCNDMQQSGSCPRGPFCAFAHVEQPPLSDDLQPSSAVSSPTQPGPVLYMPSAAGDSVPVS
Notes: RNA with constant flanks, human-mouse chimeric sites, ends assumed
Shared flanks, not repeated: GGGAGUUCUACAGUCCGACGAUC … CAACAGAGGAUUGAGCAUCA
Oligonucleotide | bound/input enrichment
CUGUGACCACAAGAUCCUACCUGAGUGUUCAGAUGGGUUGACUCCCUCUCCUUGCCUGAACCCCCCCCUUUUGUUCCCCCAUCCCCCAGUGUCGGCUGAGAUGUUGCCUCUGCACGGUUC | 1.32 ratio
CUUAAUGUUAAUAUUUUUGAAUAAAUGAAGCUAAAAUGUCUGCUUUUGGUACAACACGCAUUAAUAAAAGGUUAAGUAAGUUUUGUUACUGAAGUACGUAAUACUUACUCAGAAAAAAAC | 0.367 ratio
AUCCAGUACUCGAAUCACAAAGAACUAAAGACAGAUAAUACAUUAAACCAACGUGCUCAGGCAGUUCUUCAAGCUGUGACAGCGGUCCAGACAGCAAAUACUCCUCUUAGUGGCACCACA | 0.264 ratio
GUGACUGGUGUUAAGAUUUCCCCUCAGAAAAGAACUGCAGUAGUCACCAUAAUUCCAUCUGUGGUGAGUGCCAGUCAGAUUGUGGAGCUGGUCCCAGACCUCAGUUUAGAUACUGGGACU | 0.522 ratio
UUGUGCAAUGAUGCUUGAGAUGGUUUUUGCAAAAGCAGAAAUCGCUGCAAGGUAAUCACAAUAGAUACAAGCGGUAUUUUAAACCUUUGAAAUAAAUGGAUGUAACUGUACCUUGGUACA | 0.263 ratio
GAAUCCUACUCAGGCGGAUUUUGCAACACCAAGCUCAAGUAGCAAUUAUCUUAGUCACAGUAGGGUAGUUUUGGGGCAAUAUUGCCAGGGUUUUAUUCACAUGCAGGUUUGGAAAAUGUA | 2.5 ratio
CGCUGGCCCAAGCUGAUGUAAAUGUUUGGCCUCCAUCUCUCAGGCACGUGUGCCUUCUCUUAGUUAUUGUUUUCGGGAUGUUAUGAAUCUCAGUACUGUGGUUUGAAAGCACCAGCUUUG | 8.79 ratio
CACAGAGCAGCACCUACCCCCUCCUCCUUUCCACACCUGCAAACUCUUUUACUUGGGCUGAAUAUUUAGUGUUAAUUCAUCUCAGCUUUUGAGGGCUCUGUGGCAAAUUCCCGGAUUAAA | 0.538 ratio

Study 2 — technique: protein binding microarray; form: double-stranded DNA, one strand shown; matrix: in vitro; tested at: not given; relative to: not given; reading: higher = stronger binding
Target: Histone acetyltransferase KAT6A, both winged helices, GST fusion (KAT6A, Homo sapiens, UniProt Q92794, residues 1-181)
Notes: 8-mer, flanks averaged, mean of 2 arrays, mostly near background
Target sequence (chain): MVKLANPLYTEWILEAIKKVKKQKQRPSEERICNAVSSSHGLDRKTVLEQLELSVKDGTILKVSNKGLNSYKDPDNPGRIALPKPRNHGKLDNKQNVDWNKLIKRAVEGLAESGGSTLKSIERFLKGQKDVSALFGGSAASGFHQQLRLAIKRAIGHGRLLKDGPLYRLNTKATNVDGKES
Oligonucleotide | E-score
CACGTTGC | -0.0321
TCATATAA | -0.0231
GGATCCAA | -0.0411
CTCACCTA | -0.0162
CGCTTGAC | 0.302
AATACACT | -0.135
ACGTTTTC | 0.163
CCTTGTAA | -0.00103
GAATGCAC | -0.033
AGGGATGG | -0.15
CAGGTACG | 0.0843
GTGCCCAC | -0.0162
AGGATACA | -0.149
ATGTATAC | -0.0717
CCCGGAGA | 0.129
CTCGAACC | -0.0499
CTACAGCC | -0.121
AGGGTCTC | -0.177
CGGTCCTC | 0.185
CTGCCCAC | -0.266

Study 3 — technique: RNA Bind-n-Seq; form: RNA; matrix: in vitro; tested at: 1 µM; notes: whole 134-nt RNA, ends assumed; added: 150 mM KCl; relative to: input library; reading: higher = stronger binding
Target: Ras GTPase-activating protein-binding protein 1, C-terminal RGG region (G3BP1, Homo sapiens, UniProt Q13283)
Sequence of UniProt Q13283 (whole entry, looked up): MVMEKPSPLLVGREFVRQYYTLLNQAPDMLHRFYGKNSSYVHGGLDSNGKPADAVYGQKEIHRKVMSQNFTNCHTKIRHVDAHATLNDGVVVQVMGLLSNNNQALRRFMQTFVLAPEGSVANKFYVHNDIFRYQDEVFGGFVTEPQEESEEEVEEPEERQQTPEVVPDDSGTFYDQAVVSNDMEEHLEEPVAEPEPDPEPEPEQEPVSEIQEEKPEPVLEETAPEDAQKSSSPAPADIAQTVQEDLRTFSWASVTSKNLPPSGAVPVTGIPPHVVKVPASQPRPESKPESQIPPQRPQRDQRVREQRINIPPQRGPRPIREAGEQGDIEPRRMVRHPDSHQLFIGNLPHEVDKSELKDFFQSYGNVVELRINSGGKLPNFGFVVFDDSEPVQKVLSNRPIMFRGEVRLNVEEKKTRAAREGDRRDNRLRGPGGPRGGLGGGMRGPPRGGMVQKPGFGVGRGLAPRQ
Shared flanks, not repeated: GGGAGUUCUACAGUCCGACGAUC … UGGAAUUCUCGGGUGUCAAGG
Oligonucleotide | log2 enrichment
CAAGUCCUGUGCUACACAUCGUAUGUACCGAAUCGGGGUUUGGGGUGGGGUGGGGAAAGUAUUAUGUUACGCCGUUCGGAUCUGCACUUC | 2.39
UGGGAGGUGGAUUUUGUUUAUUUUUUUAGCUCAUUUCCAGGGGUGGGAAUUUUUUUUUAAUAUGUGUCAUGAAUAAAGUUGUUUUUGAUA | 2.28
UGAAUCCUUCCUUGAUGAUGAAGAGGUAUGUCAACAAGGGUAAUAAUUUGUUUUCUUCUGAUUACUCUCAUAUUUUUAUUAUCUUUUAUU | -1.47
UGGGAGGUGGAUUUUGUGUAUUUUUUUAGCUCAUUUCCAGGGGUGGGAAUUUUUUUUUAAUAUGUGUCAUGAAUAAAGUUGUUUUUGAAA | 3.29
ACCAUGCAGGUGGGCAUCUUUGGGAAGUGGGGGAAGGGGGGGAUAGGGAGGGGGGUAACACUUUGGGAACAGGUGGUCCCAGGUCGUUUC | -1.1
CCUGUGCUACACAUCGUAUGUACCGAAUCGGGAAAAAAAGGAAAAAAAGGGGAAAAAAAGGAAAGUAUUAUGUUACGCCGUUCGGAUCUG | -1.71
ACCAUGCAGGUGGGCAUCUUUGGGAAGUGGGGCAAGGGGGGGAUAGGGAGGGGGGUAACAAAUUGGGAACAGGUGGUCCCAGGUCGUUUC | -1.06
CACAGACAACACGCACCCACACAGACUCAGAGGGAAGGGGUUGGGAUGGGGACAGGGUGCACAGCAGGGCGGGGUAGGACCCCAGCCCCU | -0.232
UAACUUUAGAGGAGGAUCUGAUGGAUAUGGCAAUGGACGUGGAUUUGGGGAUGGCUAUAAUGGGUAUGGAGGAGGACCUGGAGGUGGCAA | -1.34

Study 4 — technique: RNA Bind-n-Seq; form: RNA; matrix: in vitro; tested at: 365 nM; relative to: no-protein control; reading: higher = stronger binding
Target: RNA binding protein fox-1 homolog 2, RRM domain, GST-SBP tag (RBFOX2, Homo sapiens, UniProt O43251-10, residues 100-194)
Notes: natural RNA segment, single round, ends assumed
Shared flanks, not repeated: GGGAGUUCUACAGUCCGACGAUC … UGGAAUUCUCGGGUGCCAA
Target sequence (chain): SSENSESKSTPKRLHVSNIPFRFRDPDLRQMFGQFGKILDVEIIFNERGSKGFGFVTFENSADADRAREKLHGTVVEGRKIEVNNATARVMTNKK
Oligonucleotide | RBNS enrichment (R)
CAGAAGGCCAGAGCUGGGACAAGCCUUGACCCGUUCUGCAGCCCUUAGAGCCUUCACACGUGAGCACUAGGCCAUCUUAGCAGAACCCCCAUCUGGCAGCACAUGCCAAG | 7.12
CAGAACUGAGUCUAUAGCCCAGGUCUGCUGGCUUCCAGCACAUGUUGUACACUAAGAUUUCAUGCAGACACCAUUGCUGUGGAGCCGAUUGAAAUUUAACCCUGCUCCAU | 0.32
UUUAAGAUGCUUGUAAAUAUUAUUUAUGUUUUUAAUUUUGUAAAAUAAAGAUUGCUUUUUAACCAUUGGCAUGAAGUGUGGUCUUUGCUAGCUAGAAUCUGACUGACGUC | 1.21
AUUUAAGAAAAAUUGCUGUUUCUACUCUCUGUAUCUGAUUUUAAAAGGAAAAAAAAAUUCACACCUGGCUUUCAGGUAACUGACUUUGGAUUCUUACAAGCAAAGGUCAU | 0.441
CCUGCUUCAGCUACUGCCUCCUGUAUGCAUGAGCCGGAUGCUGGGCAGGAUCCCUGCCUACGCCCGGGCCCGAUUUGCGCUUUGCCGGACUGGAUGGAGUGGAGGAGGCC | 5.82
UAUUGAGGGCAAUAUUUUACUGCUAGCUUGCAAAAUUAUAAGUGUUUUAAAAAUAAAAUACAUGAAAUAUUUAAAGCUGUUGAGAUGUGUUUACUUGCAUUUAAAACAGU | 1.21
GGCAAGAUAGGAAGCUCUGCCUGAGCUUUCCACUAGGCACGCCAGCCAGACCAAUAAAAAGCGUCUGUCCCACUCUGCUAAGCCUGGUUUUCUUGAGCAGAGGGAUGGAA | 0.326
UUAUUUUAAAAGUUCCUGCUGUUCUUUACAAAUCCAGUUCUGAGGUGCAGGCCACCAACAGCAGCGUCUACCAGGUUUUGUGCCUUAACAGUCUCAAGGGCUGAAGCCCA | 0.387
